Measured values of several laboratories.
A part holds a random share of what one study measured. Changes are numbered by the printed parent chain.

Block 1 — technique: protein-binding microarray; molecule type: double-stranded DNA, one strand shown; matrix: in vitro; concentration: 2200 nM top; notes: 60-bp whole probe; added: salmon DNA 0.4 mg/ml; relative to: random background probes; direction: higher = stronger binding; shared flanks, not repeated: GCCTAGCAC … GTCTTGATTCGCTTGACGCTGCTG
Target: Interferon regulatory factor 7, full length, phosphomimetic (IRF7, Homo sapiens, UniProt Q92985, residues 1-503, S471D/S472D/S475D/S476D/S477D/S483D/S484D/S487D)
Chain of UniProt Q92985 (whole entry, unmodified, looked up): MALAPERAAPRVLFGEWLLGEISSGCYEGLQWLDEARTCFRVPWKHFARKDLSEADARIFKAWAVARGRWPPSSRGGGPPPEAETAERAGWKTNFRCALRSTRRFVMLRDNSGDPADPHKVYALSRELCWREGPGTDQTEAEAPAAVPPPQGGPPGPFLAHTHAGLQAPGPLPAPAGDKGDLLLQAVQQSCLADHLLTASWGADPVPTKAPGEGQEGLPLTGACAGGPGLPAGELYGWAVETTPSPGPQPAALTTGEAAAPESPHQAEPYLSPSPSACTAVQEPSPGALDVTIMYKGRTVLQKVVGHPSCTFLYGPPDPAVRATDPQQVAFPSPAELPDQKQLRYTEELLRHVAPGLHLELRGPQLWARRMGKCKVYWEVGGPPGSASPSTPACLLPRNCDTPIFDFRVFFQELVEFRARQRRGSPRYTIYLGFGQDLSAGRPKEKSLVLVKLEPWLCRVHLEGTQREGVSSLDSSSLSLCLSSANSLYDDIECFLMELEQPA
Sequence	fitted relative affinity
TTAGATTTCTGTCTCGATTAGTGCTAG	1.06 z-score
TTAGACCTCAGTCTCGATTAGTGCTAG	0.146 z-score
TTAGGTTTCGGGTATCGCTTAGTGCTA	5.95 z-score
TTAGTTTTCGGGTTTCGGTTAGTGCTA	11.2 z-score
GTCGGTTTCCTACTGCTGACGTGCTAG	2.86 z-score
ATGCTACTGCATTTTTTTTTGTGCTAG	0.489 z-score
TTAGGTTTCGACACAGGGTTAGTGCTA	2.16 z-score
GACGGTTTCGACACTGGGCACGTGCTA	2.37 z-score
GACGGTATAGGGACTGGGGACGTGCTA	-0.665 z-score
GACGATTTCAGGTATCGAGACGTGCTA	0.999 z-score
TCCCTTTTCATGCTCTTATAGTGCTAG	3.23 z-score

Block 2 — target: CCNF, cyclin fold, Cln2 fusion (human); technique: yeast growth competition, sequencing; matrix: yeast; notes: strong parent motif; relative to: not given; direction: higher = stronger binding
Starting sequence: SLBP docking peptide (human); ARYKRKLLINDFG
Change	normalised enrichment score
ARYKRKLLIQDFG [N10Q]	1.76
ADYKRKLLINDFG [R2D]	1.76
ARYCRKLLINDFG [K4C]	1.27
ARYKRCLLINDFG [K6C]	2.41
ARYKRKLLIFDFG [N10F]	3.01
ARYKRELLINDFG [K6E]	1.06
ARYKIKLLINDFG [R5I]	1.82
ARYYRKLLINDFG [K4Y]	1.2

Block 3 — technique: RNA Bind-n-Seq; molecule type: RNA; matrix: in vitro; concentration: 1 µM; notes: whole 134-nt RNA, ends assumed; added: 150 mM KCl; relative to: input library; direction: higher = stronger binding
Target: Ras GTPase-activating protein-binding protein 1, C-terminal RGG region (G3BP1, Homo sapiens, UniProt Q13283)
Chain of UniProt Q13283 (whole entry, looked up): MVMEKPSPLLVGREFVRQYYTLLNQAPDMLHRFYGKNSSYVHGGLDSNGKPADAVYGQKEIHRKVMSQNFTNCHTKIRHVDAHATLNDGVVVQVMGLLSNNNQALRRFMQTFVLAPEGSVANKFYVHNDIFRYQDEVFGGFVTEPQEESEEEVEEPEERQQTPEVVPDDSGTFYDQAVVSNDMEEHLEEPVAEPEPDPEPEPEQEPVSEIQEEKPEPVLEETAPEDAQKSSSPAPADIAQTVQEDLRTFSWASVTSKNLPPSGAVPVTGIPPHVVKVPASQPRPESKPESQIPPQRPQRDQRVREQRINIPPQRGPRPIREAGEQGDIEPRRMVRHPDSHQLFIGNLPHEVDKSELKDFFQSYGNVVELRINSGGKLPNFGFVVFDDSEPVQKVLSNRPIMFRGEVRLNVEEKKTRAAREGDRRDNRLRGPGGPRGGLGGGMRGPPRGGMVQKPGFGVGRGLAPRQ
Shared flanks, not repeated: GGGAGUUCUACAGUCCGACGAUC … UGGAAUUCUCGGGUGUCAAGG
Sequence	log2 enrichment
UCCUGUGCUACACAUCGUAUGUACCGAAUCGGGGAAAAAGGGAAAAAGGGAAAAAGGGGAAAGUAUUAUGUUACGCCGUUCGGAUCUGCA	-0.269
AGUCCUGUGCUACACAUCGUAUGUACCGAAUCGGGUUUUUUUGGGAAAAAGGGAGGGAAAGUAUUAUGUUACGCCGUUCGGAUCUGCACU	0.831
AGUCCUGUGCUACACAUCGUAUGUACCGAAUCGGGUGGGUUUUUUUGGGAAAAAGGGAAAGUAUUAUGUUACGCCGUUCGGAUCUGCACU	-0.382
UUCUGAGAAGGUUGCGCAGCAGCUGUGCCCGGCAGUCUAGAGGCGCAGAAGAGGAAGCCAUCGCCUGGCCCCGGCUCUCUGGACCUUGUC	-1.71
UCCUGUGCUACACAUCGUAUGUACCGAAUCAAAUUUUUAAACCCCCCCAAAUUUUUAAAAAAGUAUUAUGUUACGCCGUUCGGAUCUGCA	-0.0174
GUCCUGUGCUACACAUCGUAUGUACCGAAUCGGGUUUUUGGUUUUUGGGUUUUUGGGGAAAGUAUUAUGUUACGCCGUUCGGAUCUGCAC	-0.936

Mixed results
Molecule	target	assay	system	setting	how to read	quantity	value
PhoQ, residues 284 288 289 292 302 303 SNGLAW	PhoP, residues 12 14 15 18 19 NQFFI (Escherichia coli, UniProt P23836)	Sort-seq, measured: YFP reporter	E. coli	PhoQ-PhoP variant library, added: 10 µM Mg2+	relative to: high Mg2+ state, higher = stronger signaling	fold induction	18.6
